# Experimental data collected from several papers.
# Each line is one published result; not all experiments were run side by side. ± marks the error that the study gave.
# IDE: Insulin-degrading enzyme (IDE, Homo sapiens, UniProt P14735)
# USP33 ZnF-UBD domain: Ubiquitin carboxyl-terminal hydrolase 33, ZnF-UBD domain (USP33, Homo sapiens, UniProt Q8TEY7)
# Chain of UniProt Q8TEY7 (whole entry, looked up): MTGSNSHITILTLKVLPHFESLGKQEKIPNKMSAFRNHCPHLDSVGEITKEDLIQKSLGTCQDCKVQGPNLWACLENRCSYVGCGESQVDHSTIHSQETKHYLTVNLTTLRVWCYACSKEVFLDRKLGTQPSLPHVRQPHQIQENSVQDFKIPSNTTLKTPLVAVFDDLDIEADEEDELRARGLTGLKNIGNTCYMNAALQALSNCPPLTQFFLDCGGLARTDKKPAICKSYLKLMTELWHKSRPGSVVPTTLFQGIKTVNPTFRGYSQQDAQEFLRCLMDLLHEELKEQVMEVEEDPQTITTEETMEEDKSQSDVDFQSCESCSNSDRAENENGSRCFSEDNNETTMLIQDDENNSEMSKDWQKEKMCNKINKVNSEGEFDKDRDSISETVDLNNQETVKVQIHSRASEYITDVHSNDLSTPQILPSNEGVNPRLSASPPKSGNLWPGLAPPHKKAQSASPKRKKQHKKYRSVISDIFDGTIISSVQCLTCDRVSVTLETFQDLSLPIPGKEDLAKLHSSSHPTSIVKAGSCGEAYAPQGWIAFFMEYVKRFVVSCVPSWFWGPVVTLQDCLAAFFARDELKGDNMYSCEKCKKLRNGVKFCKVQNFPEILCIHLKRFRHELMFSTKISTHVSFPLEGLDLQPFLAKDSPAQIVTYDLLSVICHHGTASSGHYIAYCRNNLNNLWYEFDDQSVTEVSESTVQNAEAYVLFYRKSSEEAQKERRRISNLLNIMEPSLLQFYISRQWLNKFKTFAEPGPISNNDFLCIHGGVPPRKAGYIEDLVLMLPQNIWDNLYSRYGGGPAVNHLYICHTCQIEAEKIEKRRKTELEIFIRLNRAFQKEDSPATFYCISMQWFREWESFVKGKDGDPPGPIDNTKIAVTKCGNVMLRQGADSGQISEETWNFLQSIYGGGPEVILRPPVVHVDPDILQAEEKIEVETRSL
# Chain of UniProt Q96SW2 (whole entry, looked up): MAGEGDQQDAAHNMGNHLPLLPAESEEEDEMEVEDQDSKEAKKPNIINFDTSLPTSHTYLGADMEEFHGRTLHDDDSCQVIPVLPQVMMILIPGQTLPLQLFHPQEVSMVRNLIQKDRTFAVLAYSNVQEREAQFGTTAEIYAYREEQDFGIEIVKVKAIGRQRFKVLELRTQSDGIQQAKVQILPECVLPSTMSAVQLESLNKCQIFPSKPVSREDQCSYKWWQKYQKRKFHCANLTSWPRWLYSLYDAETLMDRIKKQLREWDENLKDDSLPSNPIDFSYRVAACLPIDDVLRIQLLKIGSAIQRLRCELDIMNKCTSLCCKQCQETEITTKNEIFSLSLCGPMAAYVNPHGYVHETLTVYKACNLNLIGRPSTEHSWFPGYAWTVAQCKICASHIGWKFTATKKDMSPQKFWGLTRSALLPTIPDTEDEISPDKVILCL
# Chain of UniProt Q13422 (whole entry, looked up): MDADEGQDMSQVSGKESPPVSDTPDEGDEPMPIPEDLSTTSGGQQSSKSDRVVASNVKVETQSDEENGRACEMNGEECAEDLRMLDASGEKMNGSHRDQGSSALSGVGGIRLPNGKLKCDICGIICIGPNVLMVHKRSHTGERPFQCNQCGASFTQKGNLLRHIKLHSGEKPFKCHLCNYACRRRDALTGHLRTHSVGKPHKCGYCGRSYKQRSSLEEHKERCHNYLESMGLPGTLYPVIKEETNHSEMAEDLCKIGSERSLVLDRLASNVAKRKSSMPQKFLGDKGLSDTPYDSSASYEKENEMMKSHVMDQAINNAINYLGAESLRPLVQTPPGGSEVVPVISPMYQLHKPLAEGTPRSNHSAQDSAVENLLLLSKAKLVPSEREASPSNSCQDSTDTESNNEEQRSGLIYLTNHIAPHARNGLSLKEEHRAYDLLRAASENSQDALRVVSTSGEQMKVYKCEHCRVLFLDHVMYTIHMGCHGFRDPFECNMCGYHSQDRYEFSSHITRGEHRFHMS
Structure (SMILES),target,test,conditions,endpoint,value
Cc1ccccc1-c1ccc([C@H]2[C@H]3CN(C(=O)NC4CCCC4)CCCCN3[C@H]2CO)cc1,IDE,"enzyme activity, inhibitor, fluorogenic kinetic",together with: Mca-RPPGFSAFK(Dnp)-OH substrate,EC50,5.6 µM
CCC(C)(NCCc1ccc(OC)cc1)c1cccc(NC2=CC(=O)N(C3CCC(=O)NC3=O)C2=O)c1 (stereo not shown),"Cereblon/Ikaros (Homo sapiens, UniProt Q13422+Q96SW2)","degrader, HiBiT luminescence, item: endogenous HiBiT-tagged protein",,DC50,0.06 ± 0.014 µM
O=C(O)CNC(=O)c1ccc(C(=O)N2CCC(c3ccc(Cl)cc3)CC2)cn1,USP33 ZnF-UBD domain,,,Kd,> 1000 µM
NS(=O)(=O)c1nnc(NC(=O)CN2CCC(F)(F)CC2)s1,Enterococcus faecium γ-carbonic anhydrase,"CO2 hydration, inhibitor, stopped-flow kinetics",,Ki,0.0491 µM
O=C(O)CCc1ccccc1OCc1ccccn1,USP33 ZnF-UBD domain,,,Kd,> 1000 µM
Cc1cccc(-c2ccc([C@@H]3[C@@H](CO)N4CCCCN(C(=O)NC(C)C)C[C@@H]34)cc2)c1,IDE,"enzyme activity, inhibitor, fluorogenic kinetic",together with: Mca-RPPGFSAFK(Dnp)-OH substrate,EC50,6.2 µM
O=C(O)Cc1cccnc1,USP33 ZnF-UBD domain,,,Kd,115 µM
CC1(CC(=O)Nc2nnc(S(N)(=O)=O)s2)CCCCC1,Enterococcus faecium γ-carbonic anhydrase,"CO2 hydration, inhibitor, stopped-flow kinetics",,Ki,0.398 µM
Cc1cccc(-c2ccc([C@@H]3[C@@H](CO)N4CCCCN(C(=O)c5cccnc5)C[C@@H]34)cc2)c1,IDE,"enzyme activity, inhibitor, fluorogenic kinetic",together with: Mca-RPPGFSAFK(Dnp)-OH substrate,EC50,> 100 µM
NS(=O)(=O)c1nnc(NC(=O)CCCC2CCCCC2)s1,Enterococcus faecium γ-carbonic anhydrase,"CO2 hydration, inhibitor, stopped-flow kinetics",,Ki,0.679 µM
Cc1cccc(-c2ccc([C@H]3[C@@H](CO)N4CCCCN(C(=O)c5ccncc5)C[C@H]34)cc2)c1,IDE,"enzyme activity, inhibitor, fluorogenic kinetic",together with: Mca-RPPGFSAFK(Dnp)-OH substrate,EC50,3 µM
O=C(O)CCOc1ccccc1,USP33 ZnF-UBD domain,,,Kd,724 µM
NS(=O)(=O)c1nnc(NC(=O)Cc2ccccc2)s1,Enterococcus faecium γ-carbonic anhydrase,"CO2 hydration, inhibitor, stopped-flow kinetics",,Ki,0.123 µM

# Repeated from above:
Structure (SMILES),target,test,conditions,endpoint,value
O=C(O)CCc1ccccc1OCc1ccccn1,USP33 ZnF-UBD domain,,,Kd,> 1000 µM
O=C(O)CNC(=O)c1ccc(C(=O)N2CCC(c3ccc(Cl)cc3)CC2)cn1,USP33 ZnF-UBD domain,,,Kd,> 1000 µM
